Results pooled from the literature.
Parts stem from different laboratories: compare values within a part only. Changes are numbered by the printed parent chain.

Block 1 — method: protein-binding microarray; form: double-stranded DNA, one strand shown; medium: in vitro; tested at: 0.8 µM; notes: whole 60-bp probe, no competitor; reading: higher = stronger binding
Target: Centromere-binding protein 1, full length, N-terminal tag (CBF1, Saccharomyces cerevisiae, UniProt P17106, residues 1-351)
Chain of UniProt P17106 (whole entry, looked up): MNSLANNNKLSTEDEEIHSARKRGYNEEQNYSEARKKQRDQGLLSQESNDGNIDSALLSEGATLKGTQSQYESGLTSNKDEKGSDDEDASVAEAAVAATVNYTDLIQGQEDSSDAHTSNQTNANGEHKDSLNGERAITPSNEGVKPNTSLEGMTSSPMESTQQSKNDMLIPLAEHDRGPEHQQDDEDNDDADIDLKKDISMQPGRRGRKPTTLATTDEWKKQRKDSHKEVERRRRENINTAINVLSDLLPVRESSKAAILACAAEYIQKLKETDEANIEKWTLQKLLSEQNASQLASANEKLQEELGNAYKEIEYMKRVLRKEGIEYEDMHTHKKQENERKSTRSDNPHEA
Sequence	fluorescence intensity [a.u.]
GAAAATAACAGCAATCACGTCTAAAAAGCTTTCTAGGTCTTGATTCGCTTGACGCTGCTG	545
CTAAAGCATCGCCGTGATGTGTTATATATTGCATTCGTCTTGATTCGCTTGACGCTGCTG	570
GAAAAGGATTTCATAAACGTGTGGTTCACGATATAGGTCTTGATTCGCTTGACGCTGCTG	530
GAAGTTTCTTTCAAACTGATCACGTGAAAGGGATAGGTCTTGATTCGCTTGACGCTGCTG	20800
GAATGGATCTTTGCTTGCGTCACCAGTCCATCCTAGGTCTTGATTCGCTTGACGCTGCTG	529
GAAGTCAGCCGTTTCCACGTGACGGGAAAAGTGTAGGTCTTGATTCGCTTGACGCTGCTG	9470

Block 2 — method: RNA Bind-n-Seq; form: RNA; medium: in vitro; tested at: 200 nM; notes: whole 134-nt RNA, ends assumed; together with: 150 mM LiCl; relative to: input library; reading: higher = stronger binding; library: 7-deaza-guanosine replaces G
Target: Fragile X messenger ribonucleoprotein 1, C-terminal low-complexity region (Fmr1, Mus musculus, UniProt P35922)
Sequence	log2 enrichment
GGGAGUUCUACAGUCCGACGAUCCACAGACAACACGCACCCACACAGACACAGAGGGAAGGGGUUGGGAUGGGGACAGGGUGCACAGCAGGGCGGGUUAGGACCCCAGCCCCUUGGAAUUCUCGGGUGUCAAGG	0.901
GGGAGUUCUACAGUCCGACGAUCAAGUCCUGUGCUACACAUCGUAUGUACCGAAUCGGUUUUUGGUUUGGUUUUUUUGGAAAGUAUUAUGUUACGCCGUUCGGAUCUGCACUUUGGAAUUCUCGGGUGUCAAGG	-2.56
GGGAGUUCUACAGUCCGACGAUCAGUCCUGUGCUACACAUCGUAUGUACCGAAUCGGGGCCCCGGGCCCCGGGGCCCCGGGAAAGUAUUAUGUUACGCCGUUCGGAUCUGCACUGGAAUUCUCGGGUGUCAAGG	0.455
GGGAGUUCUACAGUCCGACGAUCCAAGUCCUGUGCUACACAUCGUAUGUACCGAAUCAAACCCAAAUUUAAACCCAAAAAAGUAUUAUGUUACGCCGUUCGGAUCUGCACUUCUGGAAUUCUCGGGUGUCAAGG	0.981
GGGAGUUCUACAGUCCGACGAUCAAGUCCUGUGCUACACAUCGUAUGUACCGAAUCGGCCCCGGCCCCGGGGCCCCGGGAAAGUAUUAUGUUACGCCGUUCGGAUCUGCACUUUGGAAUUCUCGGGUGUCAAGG	-3.32
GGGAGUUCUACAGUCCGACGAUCUCAAGUCCUGUGCUACACAUCGUAUGUACCGAAUCGGCCCGGGGCCCGGCCCGGAAAGUAUUAUGUUACGCCGUUCGGAUCUGCACUUCCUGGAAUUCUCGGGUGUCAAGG	-0.514

Block 3 — target: CCNB1, cyclin fold, Cln2 fusion (human); method: yeast growth competition, sequencing; medium: yeast; notes: weak parent motif; relative to: not given; reading: higher = stronger binding
Starting sequence: CDKN1B docking peptide (human); PSACRNLFGPVDH
Variant	normalised enrichment score
S2T	0.527
L7F	0.593
V11I	0.783

Mixed results
Substance	target	test	test system	setting	how to read	quantity	value
PhoQ, residues 284 288 289 292 302 303 ASVMEA	PhoP, residues 12 14 15 18 19 TPWLV (Escherichia coli, UniProt P23836)	Sort-seq, refers to: YFP reporter	E. coli	PhoQ-PhoP variant library, together with: 10 µM Mg2+	relative to: high Mg2+ state, higher = stronger signaling	fold induction	6.78

Excerpt of the above (mixed results):
Substance	target	test	test system	setting	how to read	quantity	value
PhoQ, residues 284 288 289 292 302 303 ASVMEA	PhoP, residues 12 14 15 18 19 TPWLV (Escherichia coli, UniProt P23836)	Sort-seq, refers to: YFP reporter	E. coli	PhoQ-PhoP variant library, together with: 10 µM Mg2+	relative to: high Mg2+ state, higher = stronger signaling	fold induction	6.78
